Measured values of several laboratories.
A part holds a random share of what one study measured. Substitutions count along the parent as printed.

Set 1 — method: RNA Bind-n-Seq; form: RNA; matrix: in vitro; concentration: 365 nM; relative to: no-protein control; direction: higher = stronger binding
Target: RNA binding protein fox-1 homolog 2, RRM domain, GST-SBP tag (RBFOX2, Homo sapiens, UniProt O43251-10, residues 100-194)
Setting: natural RNA segment, single round, ends assumed
Target sequence (chain): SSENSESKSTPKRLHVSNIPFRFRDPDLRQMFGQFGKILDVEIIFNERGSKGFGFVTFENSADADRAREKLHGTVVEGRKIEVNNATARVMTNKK
`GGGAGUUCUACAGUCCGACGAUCUUGAAAAAAUAGGAACUCGGGCAGCAGAAUCAGAUUGGCAGAAUCUUUAGACUACACAGGCAAUAAUCAAGUCUGCUGUUUUGGCCUUUCGUAGUAGAAGUGGUUGUAGUUGGAAUUCUCGGGUGCCAA` — result for “RBNS enrichment (R)”: 0.365.
For `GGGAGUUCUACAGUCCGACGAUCUUCAGUUGGGAUAGGCUUGUUUUGUCUGUUGAAAAUGUUUCUAGUUUUUUUUCUUUCAUUUUUCUCUCAUUCCAUUUCUGCCUUAACUUUAGUUUGUUCACAGGGAGGCAUGGAAUUCUCGGGUGCCAA`, “RBNS enrichment (R)” read 0.919.
`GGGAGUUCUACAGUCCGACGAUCCGUUUUUAUAUUACUUUUGUAAAUAUUCUUGUCCACAUUCUACUUCAGCUUUGGAUGUGGUUACCGAGUAUCUGUAACCCUUGAAUUUCUAGACAGUAUUGCCACCUCUGUGGAAUUCUCGGGUGCCAA`: “RBNS enrichment (R)” 0.706.
`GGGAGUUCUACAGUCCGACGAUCAGAGUCCUUCAUCCCAUCUCCAGGGUCUCUGACUUGUCACCCCUCAUCCUGGGAGCGCCAUAGUUCAUCUUUCACCCACACGCCUUCCCUCCAUUCCUGAGCAGGACUAGUGGAAUUCUCGGGUGCCAA` — result for “RBNS enrichment (R)”: 0.479.
`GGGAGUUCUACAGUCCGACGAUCAAUGCAAACGGCCACUGCAUUUUAAUGAUUGUUAUUCUUUUAUGAAUAAAAUGUAUGUAGAAACAAGCAAAUUUACUGAAACAAGCAGAAUUAAAAGAGAAACUGUAACAUGGAAUUCUCGGGUGCCAA` — result for “RBNS enrichment (R)”: 0.623.
`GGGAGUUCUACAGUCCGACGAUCUCCCUGCCUGCACAAACCUACAUGUACAUACCAUGGAUUAGAGACACUUGCAGGACUGAAAGGCUGCUCUGGUGAGGCAGCCUCUGUUUAAACCGGCCCCACAUGAAGAGUGGAAUUCUCGGGUGCCAA` — result for “RBNS enrichment (R)”: 4.05.
`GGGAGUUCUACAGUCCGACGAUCGUGGCUGUCUCAGACACACCAGAAGAGGGCAUCAGAUCCCAUUACAGAUGGUUGUGAGCCACCAUGUGGUUGCUGGGAAUUGAACUCAGGACCUUUGGAUAAGAAACCAGUGGAAUUCUCGGGUGCCAA`: “RBNS enrichment (R)” 0.353.
Under “RBNS enrichment (R)”, `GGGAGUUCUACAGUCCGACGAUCCCUAGUUUUGUAUCUUGUUGUAUGACUGCCAUGAGUUCCACCAGAAAGCCACUCUAUUUUGGUCUCUGUGACAUUUUAAAUGCGUGACAGAAGUGAGCAAAUAAAGUGAGUGGAAUUCUCGGGUGCCAA` is recorded as 0.472.

Set 2 — target: CCNB3, cyclin fold, Cln2 fusion (human); method: yeast growth competition, sequencing; matrix: yeast; setting: weak parent motif; relative to: not given; direction: higher = stronger binding
Starting sequence: CDC6 docking peptide (human); TLKGRRLVFDNQL
Under “normalised enrichment score”, `TLKGRRLVGDNQL [F9G]` is recorded as -0.08.
For `WLKGRRLVFDNQL [T1W]`, “normalised enrichment score” read 0.717.
Under “normalised enrichment score”, `TLKGRRLVFDNPL [Q12P]` is recorded as 0.118.
`TLKGRNLVFDNQL [R6N]` — result for “normalised enrichment score”: 0.213.
`TLKGRRLDFDNQL [V8D]` — result for “normalised enrichment score”: 0.374.
`TLKGRHLVFDNQL [R6H]` — result for “normalised enrichment score”: 0.0105.
`TLKGRRLVFSNQL [D10S]`: “normalised enrichment score” 0.523.
Under “normalised enrichment score”, `TLKGRRWVFDNQL [L7W]` is recorded as 0.539.
Under “normalised enrichment score”, `TLKGRILVFDNQL [R6I]` is recorded as 0.55.

Set 3 — method: DHFR PCA, deep sequencing; matrix: yeast; added: (+)-ABA 17 µM; relative to: wild-type fitted maximum; direction: higher = stronger binding
Target: ABI1, truncated, D143A, DHFR fusion (Arabidopsis thaliana)
Setting: methotrexate growth selection, single substitutions
Starting sequence: PYL1, truncated, DHFR fusion (Arabidopsis thaliana); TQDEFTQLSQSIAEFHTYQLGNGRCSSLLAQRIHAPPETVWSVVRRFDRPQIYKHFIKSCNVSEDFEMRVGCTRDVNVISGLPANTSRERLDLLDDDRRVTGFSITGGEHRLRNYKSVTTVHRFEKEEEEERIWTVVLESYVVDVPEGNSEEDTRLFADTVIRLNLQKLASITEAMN; partner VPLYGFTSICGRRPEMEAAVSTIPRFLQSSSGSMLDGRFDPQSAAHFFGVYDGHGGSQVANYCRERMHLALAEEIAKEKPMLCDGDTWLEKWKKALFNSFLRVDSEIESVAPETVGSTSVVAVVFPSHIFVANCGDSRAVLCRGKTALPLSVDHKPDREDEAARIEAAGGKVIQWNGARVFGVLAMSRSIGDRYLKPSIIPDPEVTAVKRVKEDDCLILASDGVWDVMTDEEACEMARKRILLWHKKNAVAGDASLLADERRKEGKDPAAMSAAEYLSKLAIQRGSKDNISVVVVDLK
For `E109L`, “relative binding score” read 45%.
Under “relative binding score”, `D144Y` is recorded as -3.86%.
For `D97W`, “relative binding score” read 47.7%.
`F103Y`: “relative binding score” 70%.
`V40Y`: “relative binding score” 2.96%.
`D144M`: “relative binding score” 16.5%.
`F47C`: “relative binding score” -8.36%.
Under “relative binding score”, `R123L` is recorded as 73.7%.

Single results of other studies
For `PhoQ, residues 284 288 289 292 302 303 ASTSDA`, the fold induction was 13.9 (PhoP, residues 12 14 15 18 19 IQSYL (Escherichia coli, UniProt P23836); Sort-seq, measured: YFP reporter; E. coli; PhoQ-PhoP variant library, added: 10 µM Mg2+; relative to: high Mg2+ state, higher = stronger signaling).

Repeated from above (set 2):
Under “normalised enrichment score”, `TLKGRRLVFDNPL [Q12P]` is recorded as 0.118.
`TLKGRNLVFDNQL [R6N]` — result for “normalised enrichment score”: 0.213.
`TLKGRRLDFDNQL [V8D]` — result for “normalised enrichment score”: 0.374.
`TLKGRHLVFDNQL [R6H]` — result for “normalised enrichment score”: 0.0105.
